Published values collected from several papers.
Protocols differ between the studies behind these lines. ± gives the spread as reported.

`C#Cc1c(F)ccc2cc(O)cc(-c3ncc4c(N5CC6CCC(C5)N6C(=O)OC(C)OC(=O)CC)nc(OC[C@@]56CCCN5C[C@H](F)C6)nc4c3F)c12` (stereo partly drawn) has a t1/2 of 5.46 min (refers to: prodrug; mouse whole blood; 1 µM).
For `Cc1ccccc1-c1ccc(-c2nc(-c3ccc(CN(C)CCCC(=O)O)c([18F])c3)no2)cc1C(F)(F)F`, the tracer uptake was 0.31 %ID/g (rat, heart; 2 h).
With `CN1Cc2cc(Cl)ccc2-n2c(nnc2C2CCN(c3cccc([18F])n3)CC2)C1` the tissue uptake was 16.4 ± 5.71 %ID/g (C57BL/6 mouse male, liver; intravenous, dose not given, 5 min, with: blocking agent 10 mg/kg).
The log Papp of `CCCCC[C@@H]1NC(=O)[C@@H](C)N(C)C(=O)[C@H](CCCCC)N(C)C(=O)[C@@H](C)N(C)C(=O)[C@H](CCCCC)N(C)C(=O)[C@@H](C)N(C)C(=O)[C@H](CCCCC)NC(=O)[C@@H](C)N(C)C1=O` is reported as 4.79 ×10⁻⁶ cm/s (PAMPA; 500 µM, pH 7.4).
`C/C(=N\OCCCN1CCCCC1)c1ccc(C(F)(F)F)cc1` gave an AUC(0-t) of 6130 ± 1600 ng·h/mL (mouse, plasma; oral, 50 mg/kg once daily, day 1).
The MRT(0-inf) of `CCn1ccc(-c2cc(-c3cnn(C)c3)cc([C@@H](C)NC(=O)c3cc(OCCN(C)C)ccc3C)c2)n1` is reported as 1.76 h (C57BL/6J mice, male, plasma; iv, 10 mg/kg).
`C=C/C=C/C[C@@H](C)[C@@H](O)[C@H]1C(=O)N[C@@H](CC)C(=O)N(C)CC(=O)N(C)[C@@H](CC(C)C)C(=O)N[C@@H](C(C)C)C(=O)N(C)[C@@H](CC(C)C)C(=O)N[C@@H](C)C(=O)N[C@H](C)C(=O)N(C)[C@@H](CC(C)C)C(=O)N(C)[C@@H](CC(C)C)C(=O)N(C)[C@@H](C(C)C)C(=O)N1C`: “fractional chloride excretion” “no effect” (male Wistar Kyoto rat; intraperitoneal, 0.5 mg/kg/day, day 18; relative to: vehicle).
`CC[C@H](C)[C@H](NC(=O)[C@H](CCCCN)NC(=O)CNC(=O)[C@H](CC(C)C)NC(=O)[C@H](Cc1ccccc1)NC(=O)[C@H](CCCCN)NC(=O)[C@H](CO)NC(=O)[C@H](Cc1ccccc1)NC(=O)[C@H](Cc1c[nH]c2ccccc12)NC(=O)[C@H](CCC(N)=O)NC(=O)[C@@H](NC(=O)[C@H](Cc1ccccc1)NC(=O)CCCCCNC(=O)CN1CCN(CC(=O)O)CCN(CC(=O)O)CCN(CC(=O)O)CC1)C(C)C)C(=O)N[C@@H](CCC(=O)O)C(=O)N1CCC[C@H]1C(=O)N[C@@H](CC(=O)O)C(=O)N[C@H](C(=O)N[C@@H](CO)C(=O)N[C@@H](CCC(N)=O)C(=O)N[C@H](C(=O)N[C@@H](CCC(N)=O)C(=O)N[C@@H](CC(=O)O)C(=O)N1CCC[C@H]1C(=O)N[C@@H](CC(N)=O)C(=O)N[C@@H](CC(=O)O)C(=O)N[C@@H](CCC(N)=O)C(=O)N[C@@H](Cc1ccc(O)cc1)C(=O)N[C@@H](CCC(=O)O)C(=O)N1CCC[C@H]1C(=O)N[C@@H](Cc1ccccc1)C(=O)O)C(C)C)C(C)C` [copper-64 labelled] gave a tissue uptake of 4.58 ± 0.3 %ID/g (C57BL/6 mice, male, tumour-free, blood; 0.5 h).
`CC(CCC(=O)NCC(=O)O)C1CCC2C3CCC4CC(OC5OC(C(=O)O)C(O)C(O)C5O)CCC4(C)C3CC(O)C12C` (stereo not drawn) has a plasma concentration of 81.3 ng/mL (men, T/T genotype, plasma; dose not given, geometric mean).
The compound remaining of `C[C@H](NCc1ccc(-c2ccc(C(F)(F)F)cc2)cc1)C(N)=O` is reported as 92.2% (metabolic stability; human, liver microsomes; 1 µM, 30 min, pH 7.4).
`N#[11C]c1ccc(-c2csc(NN=C3CCCC3)n2)cc1` — result for “uptake in testis”: 1 ± 0.06 %ID/g (C57BL/6 mouse, male; intravenous, 3 MBq, 1 min).
With `CC(C)[C@H](NC(=O)[C@@H](NC(=O)[C@H](CCCNC(=N)N)NC(=O)[C@H](CCCNC(=N)N)NC(=O)[C@H](CCCNC(=N)N)NC(=O)[C@H](CCC(N)=O)NC(=O)[C@H](CCCNC(=N)N)NC(=O)[C@H](CCCNC(=N)N)NC(=O)[C@H](CCCCN)NC(=O)[C@H](CCCCN)NC(=O)[C@H](CCCNC(=N)N)NC(=O)CN)[C@@H](C)O)C(=O)N[C@H](C(=O)N[C@@H](CO)C(=O)N1CCC[C@H]1C(=O)O)[C@@H](C)O` the organ weight was 1.76 ± 0.231 g (ICR mice, male, liver; intranasal, 10 mg/kg daily, 4 weeks).
Under “mean tissue distribution”, `CSCC[C@H](N)C(=O)N[C@@H](C)C(=O)N[C@@H](CCCNC(=N)N)C(=O)N[C@@H](CCCNC(=N)N)C(=O)N[C@@H](CC(=O)O)C(=O)N[C@@H](CCCCN)C(=O)N[C@H](C(=O)N[C@@H](CC(=O)O)C(=O)N[C@@H](Cc1ccccc1)C(=O)N[C@@H](C)C(=O)N[C@@H](CCCNC(=N)N)C(=O)N[C@@H](CCCNC(=N)N)C(=O)N[C@@H](CCCNC(=N)N)C(=O)N[C@@H](CCCNC(=N)N)C(=O)NCCCCCC(=O)NCCCCC(NC(=O)CCCCCNC(=O)[C@H](CCCNC(=N)N)NC(=O)[C@H](CCCNC(=N)N)NC(=O)[C@H](CCCNC(=N)N)NC(=O)[C@H](CCCNC(=N)N)NC(=O)[C@H](C)NC(=O)[C@H](Cc1ccccc1)NC(=O)[C@H](CC(=O)O)NC(=O)[C@@H](NC(=O)[C@H](CCCCN)NC(=O)[C@H](CC(=O)O)NC(=O)[C@H](CCCNC(=N)N)NC(=O)[C@H](CCCNC(=N)N)NC(=O)[C@H](C)NC(=O)[C@@H](N)CCSC)[C@@H](C)O)C(=O)NCCCCC(NC(=O)C(CCCCNC(=O)CCCCCNC(=O)[C@H](CCCNC(=N)N)NC(=O)[C@H](CCCNC(=N)N)NC(=O)[C@H](CCCNC(=N)N)NC(=O)[C@H](CCCNC(=N)N)NC(=O)[C@H](C)NC(=O)[C@H](Cc1ccccc1)NC(=O)[C@H](CC(=O)O)NC(=O)[C@@H](NC(=O)[C@H](CCCCN)NC(=O)[C@H](CC(=O)O)NC(=O)[C@H](CCCNC(=N)N)NC(=O)[C@H](CCCNC(=N)N)NC(=O)[C@H](C)NC(=O)[C@@H](N)CCSC)[C@@H](C)O)NC(=O)CCCCCNC(=O)[C@H](CCCNC(=N)N)NC(=O)[C@H](CCCNC(=N)N)NC(=O)[C@H](CCCNC(=N)N)NC(=O)[C@H](CCCNC(=N)N)NC(=O)[C@H](C)NC(=O)[C@H](Cc1ccccc1)NC(=O)[C@H](CC(=O)O)NC(=O)[C@@H](NC(=O)[C@H](CCCCN)NC(=O)[C@H](CC(=O)O)NC(=O)[C@H](CCCNC(=N)N)NC(=O)[C@H](CCCNC(=N)N)NC(=O)[C@H](C)NC(=O)[C@@H](N)CCSC)[C@@H](C)O)C(N)=O)[C@@H](C)O` (stereo partly drawn) is recorded as 1.53% (C57BL/6 mouse female, lungs; dose not given, 6 h; relative to: total).
With `O=C1NC2(CC2)COc2ncc(F)cc2[C@H]2COCCN2c2ccn3ncc1c3n2` the organ weight was 1.86 ± 0.378 g (Sprague-Dawley rat, male, heart; oral, 20 mg/kg/day, 4 weeks).
With `[Ga+3].[O-]c1ccc(Br)c2cccnc12.[O-]c1ccc(Br)c2cccnc12.[O-]c1ccc(Br)c2cccnc12` the log P was 1.55 (oil/water; pH 7.4).
For `O=C(c1cc(Cc2n[nH]c(=O)c3ccccc23)ccc1F)N1CC(CNC2CC2)C1`, the oral bioavailability was 70.6% (female ICR mouse, plasma; oral, 60 mg/kg, solution formulation).
`CC(C)[C@H](NC(=O)[C@H](Cc1c[nH]c2ccccc12)NC(=O)[C@H](CCCNC(=N)N)NC(=O)[C@H](CCCNC(=N)N)NC(=O)[C@@H](NC(=O)[C@@H](NC(=O)[C@H](CCCNC(=N)N)NC(=O)[C@@H](NC(=O)[C@@H](NC(=O)[C@H](CCCNC(=N)N)NC(=O)[C@H](CCCNC(=N)N)NC(=O)[C@@H](NC(=O)[C@H](Cc1c[nH]c2ccccc12)NC(=O)[C@H](CCCNC(=N)N)NC(=O)[C@H](CCCNC(=N)N)NC(=O)[C@@H](NC(=O)[C@H](CCCNC(=N)N)NC(=O)[C@H](CCCNC(=N)N)NC(=O)[C@@H](NC(=O)[C@H](Cc1c[nH]c2ccccc12)NC(=O)[C@H](CCCNC(=N)N)NC(=O)[C@@H](N)CCCNC(=N)N)C(C)C)C(C)C)C(C)C)C(C)C)C(C)C)C(C)C)C(C)C)C(=O)N[C@@H](CCCNC(=N)N)C(=O)N[C@@H](CCCNC(=N)N)C(=O)O`: “dose in tissues and carcass” ~50% (CD-1 mice; relative to: dose).
With `CCCCCCCCCCCCCCCC(=O)N[C@@H](CCC(=O)NCCOCCOCCC(=O)NCCOCCOCCC(=O)NCCCC[C@H](NC(=O)[C@H](CC(=O)O)NC(=O)[C@H](CC(C)C)NC(=O)[C@H](Cc1ccc(O)cc1)NC(=O)[C@H](CCCCN)NC(=O)[C@H](CO)NC(=O)[C@H](Cc1ccc(O)cc1)NC(=O)[C@H](CC(=O)O)NC(=O)[C@H](CO)NC(=O)[C@@H](NC(=O)[C@H](Cc1ccccc1)NC(=O)[C@@H](NC(=O)CNC(=O)[C@H](CCC(N)=O)NC(=O)[C@@H](CO)NC(=O)[C@@H](N)Cc1c[nH]cn1)[C@@H](C)O)[C@@H](C)O)C(=O)N[C@@H](CCCNC(=N)N)C(=O)N[C@@H](CCCNC(=N)N)C(=O)N[C@@H](C)C(=O)N[C@@H](CCC(N)=O)C(=O)N[C@@H](CC(=O)O)C(=O)N[C@@H](Cc1ccccc1)C(=O)N[C@H](C(=O)N[C@@H](CCC(N)=O)C(=O)N[C@@H](Cc1c[nH]c2ccccc12)C(=O)N[C@@H](CC(C)C)C(=O)N[C@@H](CC(C)C)C(=O)N[C@@H](CC(N)=O)C(=O)N[C@H](C(=O)NCC(=O)NCC(=O)N1CCC[C@H]1C(=O)N[C@@H](CO)C(=O)N[C@@H](CO)C(=O)NCC(=O)N[C@@H](C)C(=O)N1CCC[C@H]1C(=O)N1CCC[C@H]1C(=O)N1CCC[C@H]1C(=O)N[C@@H](CO)C(N)=O)[C@@H](C)O)C(C)C)C(=O)O` the half-life was 3.07 ± 1.28 h (rhesus monkey, both sexes, plasma; subcutaneous, 20 µg/kg, multiple doses, day 1).

Repeated from above:
`C#Cc1c(F)ccc2cc(O)cc(-c3ncc4c(N5CC6CCC(C5)N6C(=O)OC(C)OC(=O)CC)nc(OC[C@@]56CCCN5C[C@H](F)C6)nc4c3F)c12` (stereo partly drawn) has a t1/2 of 5.46 min (refers to: prodrug; mouse whole blood; 1 µM).
